Measurements of several laboratories.
± gives the spread as reported.

Compound	target or system	assay	test system	conditions	scale	quantity	result
COC1CN([C@H]2CC[C@H]([C@@]3(C)Oc4c(Cl)cc(C(=O)NCc5c(SC)cc(C)[nH]c5=O)c(C)c4O3)CC2)C1		RNA-seq, measured: RELN	human, whole blood	dose not given, 24 h	reference: pretreatment baseline	log2 fold change	5.19
CC=C(C)C(=O)OC1CC2C(C=C(C)C3C(OC(C)=O)CC(=O)C13C)OC(=O)C2C (stereo not drawn)	Helicobacter pylori	microbial growth, broth dilution		15.63 µg/mL		inhibition	0%
C=CC(=O)N1[C@@H](c2ccc3c(c2)OCO3)c2[nH]c3ccccc3c2C[C@H]1C(=O)N1CCN(C)CC1	human cyclin E1 wild type-3xFLAG:CDK2	co-IP with TMT proteomics, measured: RPS5		concentration not given, P46782	reference: wild type DMSO	relative co-enrichment	105%
C=CC(=O)Nc1cccc(Cn2ncc3cnc(Nc4cnn(CCOC)c4)nc32)c1	human ABL1(F317I)-phosphorylated	KINOMEscan		100 nM	reference: control	binding	69%
COc1ccc(C(=O)CCc2cc(C(CCc3ccc(O)cc3OC)c3ccc(O)cc3)c(O)cc2OC)cc1 (racemic)			human blood	30 µM, added: A23187		15-HETE level	290 ± 104 pg/mL
CN1CCCNC(=O)c2cccc(c2)C(=O)NCCCN(C)CCCNc2cccc3c2C(=O)c2cccc(c2C3=O)NCCC1	SAS	RNA-Seq, measured: CDC27 mRNA		1 µM, 6 h	reference: untreated cells	log2 fold change	-0.578
Nc1ncc(-c2cc(-c3cnn(CC(F)(F)F)c3)ncc2F)nc1C(=O)NC1CNCC(F)C1 (stereo not drawn)	TSSK3	KINOMEscan		1 µM	reference: DMSO control	remaining binding	84%
CO[C@@H]1OC[C@@H](O)[C@H](O)[C@H]1O	Helicobacter pylori	microbial growth, broth dilution		15.63 µg/mL		inhibition	0%
CNS(=O)(=O)Nc1nccc(Cc2c(C)c3ccc(Oc4ncccc4F)cc3oc2=O)c1F	SNU-81	cell viability, CellTiter-Glo		7 days		IC50	0.55 µM
C=C(NC(=O)c1csc(-c2nc3c(cc2O)-c2nc(cs2)C(=O)NC(C(C)O)C(=O)NC(=C(C)OC)c2nc(cs2)C(=O)NC2c4nc(cs4)C(=O)NC(COC(=O)c4c5c6c(cccc6n4O)COC(=O)C(OC4CC(C)(O)C(N(C)C)C(C)O4)C2OC5)c2nc-3cs2)n1)C(N)=O (stereo not drawn)	Streptococcus pneumoniae		-25, immunocompromised mice, lung	32 mg/kg/day thrice daily, 24 h post-dose		lung bacterial load	3.57 log10 CFU/lung
Cn1ncc2cc(-c3cncc(Cl)c3N3CCC4(CCNC4=O)CC3)ccc21	LS174T	gene expression, microarray, measured: EDN2 mRNA		concentration not given, 4 h	reference: untreated cells	log2 fold change	1.41
COCC1CN(C2CCN(c3cc(OC)c(Nc4ncc(Br)c(Nc5ccc6c(c5P(C)(C)=O)OCCO6)n4)cc3C)CC2)C1		RECIST 1.1	advanced EGFR-mutant NSCLC patients	60 mg once daily		objective response rate	0%
CCN(CC)CC(=O)Nc1cccc(-n2cc(-c3ccc4ccc(-c5cn(-c6cccc(NC(=O)CN(CC)CC)c6)nn5)cc4c3)nn2)c1	RCC4	PCR angiogenesis array, measured: TIMP1		5 x IC50, 4 h, normoxia	reference: untreated	fold regulation	-1.23 fold
Cc1ncsc1-c1ccc(C(C)NC(=O)C2CC(O)CN2C(=O)C(NC(=O)CCCCCCCCCCN2CCCC(Nc3ncc(Cl)c(Nc4ccccc4S(=O)(=O)C(C)C)n3)C2)C(C)(C)C)cc1 (stereo not drawn)	22Rv1	RNA-seq, measured: TBC1D25 mRNA		concentration not given	reference: DMSO	log2 fold change	-1.09
c1ccc(-c2n[nH]cc2-c2ccnc3ccccc23)nc1	FUN31 (Candida albicans)	kinase binding, MIB/MS competition	Candida albicans lysate	1 µM	reference: DMSO	log2 fold change	0.06

For quick reference, copied from above:
Compound	target or system	assay	test system	conditions	scale	quantity	result
Cn1ncc2cc(-c3cncc(Cl)c3N3CCC4(CCNC4=O)CC3)ccc21	LS174T	gene expression, microarray, measured: EDN2 mRNA		concentration not given, 4 h	reference: untreated cells	log2 fold change	1.41
COCC1CN(C2CCN(c3cc(OC)c(Nc4ncc(Br)c(Nc5ccc6c(c5P(C)(C)=O)OCCO6)n4)cc3C)CC2)C1		RECIST 1.1	advanced EGFR-mutant NSCLC patients	60 mg once daily		objective response rate	0%
